Measurements of several laboratories.
Protocols differ between the studies behind these lines. Values after ≈ are worked out from the molar mass of the structure shown.

Compound	organism	assay	test system	setting	quantity	result
COc1cc([C@H]2OC[C@H]3[C@@H]2CO[C@@H]3c2cc(OC)c(O)c(OC)c2)cc(OC)c1O	Helicobacter pylori	microbial growth, broth dilution	–	3.9 µg/mL	inhibition	100%
CN(Cc1ccc(C2(C(F)(F)F)CC2)cc1)Cc1cccc2ccccc12	Trichophyton mentagrophytes	microbial growth, disc diffusion	ATCC18748	0.128 µg/mL, 72 h	inhibition zone	≥ 55 mm
Cc1cc(C)c(C#N)c(SCC(=O)N2CCOCC2)n1	Trypanosoma brucei	parasite growth, resazurin	RHODESIENSE	–	EC50	> 64 µM
O=C(O)c1ccc(O)cc1	Helicobacter pylori	microbial growth, broth dilution	–	0.48 µg/mL	inhibition	100%
CC1(C)CC[C@]2(NC(=O)NCCCn3ccnc3)CC[C@]3(C)C(=CC[C@@H]4[C@@]5(C)CC[C@@H]6OC(C)(C)OC[C@@]6(C)[C@@H]5CC[C@]43C)[C@@H]2C1	Leishmania mexicana	parasite growth, resazurin	–	50 µM, amastigote	inhibition	97.3%
Cc1cc(C)c(C#N)c(SCC(=O)c2ccc(Cl)cc2Cl)n1	Trypanosoma brucei	parasite growth, resazurin	–	–	EC50	39.9 µM
O=c1cc(-c2ccc(O)c(O)c2)oc2cc(O)cc(O)c12	Helicobacter pylori	microbial growth, broth dilution	–	7.81 µg/mL	inhibition	100%
COc1cccc(C(=O)COc2nc(C)cc(C)c2C#N)c1	Trypanosoma brucei	parasite growth, resazurin	RHODESIENSE	–	EC50	39 µM
CN(Cc1ccc(C(C)(C)C)cc1)Cc1cccc2ccccc12	Trichophyton mentagrophytes	microbial killing, broth dilution	ATCC18748	72 h	MFC	500 µg/mL (≈ 1570 µM)
CC1(C)CC[C@]2(NC(=O)NCCN)CC[C@]3(C)C(=CC[C@@H]4[C@@]5(C)CC[C@@H]6OC(C)(C)OC[C@@]6(C)[C@@H]5CC[C@]43C)[C@@H]2C1	Leishmania mexicana	parasite growth, resazurin	–	50 µM, amastigote	inhibition	95.3%
Cc1cc(C)c(C(N)=O)c(SCC(=O)c2ccc(Cl)cc2Cl)n1	Leishmania infantum	parasite growth	mouse Macrophage	intracellular, amastigote	EC50	> 64 µM
COc1ccc(-c2cc(=O)c3c(O)cc(O[C@@H]4O[C@H](CO)[C@@H](O)[C@H](O)[C@H]4O)cc3o2)cc1O	Helicobacter pylori	microbial growth, broth dilution	–	7.81 µg/mL	inhibition	100%
N#Cc1cccnc1SCC(=O)c1ccc(F)cc1	Trypanosoma brucei	parasite growth, resazurin	RHODESIENSE	–	EC50	54.4 µM
CCOCc1ccc(C2OC[C@@]3(C)[C@@H]4CC[C@]5(C)[C@H](CC=C6[C@@H]7CC(C)(C)CC[C@]7(C(=O)O)CC[C@]65C)[C@@]4(C)CC[C@@H]3O2)o1 (stereo partly drawn)	Leishmania mexicana	parasite growth, resazurin	–	50 µM, amastigote	inhibition	97.6%
O=c1cc(-c2ccc(O)cc2)oc2cc(O)cc(O)c12	Helicobacter pylori	microbial growth, broth dilution	–	0.24 µg/mL	inhibition	42.6%
